# Experimental data gathered from unrelated publications.
# Protocols differ between the studies behind these lines. ± gives the spread as reported.
Compound,cell line,test,test system,conditions,IC50
CN1CCCNC(=O)CCC(=O)NCCCN(C)CCCNc2cccc3c2C(=O)c2cccc(c2C3=O)NCCC1,mouse bone marrow cells,"cell proliferation, CCK-8",,48 h,> 20 µM
CCCCCC(C)n1c(-c2cccnc2)nc(-c2ccc(C)cc2)c1-c1ccc(C)cc1 (stereo not drawn),BT-474,"cell growth or viability, SRB",,48 h,39.6 µM
O=C(CCCCC1SCC2NC(=O)NC21)NCCCCC1CN(C(CC2CCCCC2)CN2CCCC2CN2C(=O)C(=O)NCC2Cc2ccccc2)C(=O)C(=O)N1CCc1ccccc1 (stereo not drawn),WM 266-4,"cell growth or viability, ATP luminescence",,72 h,3.3 µM
COc1ccc(Cn2cc(COc3c(OC)ccc4cc5[n+](cc34)CCc3cc4c(cc3-5)OCO4)nn2)cc1,SMMC-7721,"cell growth or viability, MTT",,,17.4 µM
O=C(CCCc1ccc2c(c1)CCCC2)N[C@@H]1O[C@H](CO)[C@@H](O)[C@H](O)[C@H]1O,human T-lymphocyte,cell growth or viability,,72 h,> 250 µM
CC1(C)CCC(CN2CCN(c3ccc(C(=O)NS(=O)(=O)c4ccc(NCC5COCCO5)c([N+](=O)[O-])c4)c(N4CCCOc5nc6[nH]ccc6cc54)c3)CC2)=C(c2ccc(Cl)cc2)C1 (stereo not drawn),primary human CLL cells,apoptosis,,no stroma,8.1e-05 µM
COc1ccc(-c2c(C#N)c(N)n(-c3nnc(NC(=O)c4ccccc4)s3)c(=O)c2C#N)cc1,WI-38 fibroblasts,,,48 h,18.6 ± 1.4 µM
CCCCCCCCCCn1c(-c2cccnc2)nc(-c2ccc(C)cc2)c1-c1ccc(C)cc1,BT-474,"cell growth or viability, SRB",,48 h,93 µM
N#Cc1cccc(-c2ccc(=O)n(Cc3cccc(-c4ncc(OCC5CCN(CCC(=O)Nc6cccc7c6C(=O)N(C6CCC(=O)NC6=O)C7=O)CC5)cn4)c3)n2)c1 (stereo not drawn),EBC-1,"cell growth or viability, CCK-8",,72 h,0.00703 µM
CC[C@H](C)[C@H](NC(=O)[C@H](Cc1ccc(O)cc1)NC(=O)[C@H](CC(=O)O)NC(=O)[C@H](CCCCN)NC(=O)CNC(=O)[C@H](CC(=O)O)NC(=O)[C@H](CCC(N)=O)NC(=O)[C@@H](N)CCC(N)=O)C(=O)N[C@H](C(=O)N[C@@H](CC(C)C)C(=O)N1CCC[C@H]1C(=O)N[C@H](C(=O)N[C@@H](CO)C(=O)N[C@@H](CCC(=O)O)C(=O)N[C@H](C(=O)N[C@@H](CCCCNC(=O)CNC(=O)[C@H](CCCCN)NC(=O)[C@H](CCCNC(=N)N)NC(=O)[C@H](Cc1ccccc1)NC(=O)[C@H](CCCNC(=N)N)NC(=O)[C@H](CCCNC(=N)N)NC(=O)[C@H](CCCNC(=N)N)NC(=O)[C@H](CO)NC(=O)[C@H](Cc1ccc(O)cc1)NC(=O)[C@H](CO)NC(=O)[C@H](CC(C)C)NC(=O)[C@H](CCCNC(=N)N)NC(=O)[C@@H](N)CCCNC(=N)N)C(N)=O)[C@@H](C)O)[C@@H](C)CC)C(C)C,HPAEC,"ERK1/2 phosphorylation, inhibitor, Western blot",,"0.5 h pre-incubation, serum-free medium, together with: 1 ng/mL VEGF",25.2 µM
N=C(N)NCCC[C@H](N)C(=O)NC(CC(=O)N[C@@H](Cc1ccccc1)C(=O)N[C@@H](CC(=O)O)C(=O)O)c1ccc2ccccc2c1 (stereo partly drawn),BT-474,"cell growth or viability, ATP luminescence",,72 h,0.785 µM
Cn1ccc(-c2cc(Cl)c(Cl)c3[nH]c4c(c23)CN(C(=O)CO)CC4)n1,wild-type mouse BMDM,"CXCL10 secretion, inhibitor",,together with: 100 bp dsDNA,> 30 µM
N#Cc1cccc(-c2ccc(=O)n(Cc3cccc(-c4ncc(OCC5CCN(CC(=O)N6CCN(c7ccc8c(c7)C(=O)N(C7CCC(=O)NC7=O)C8=O)CC6)CC5)cn4)c3)n2)c1 (stereo not drawn),EBC-1,"cell growth or viability, CCK-8",,72 h,0.00211 µM
C#CCN(CC(=O)O[C@H]1[C@H](C)O[C@@H](O[C@H]2[C@H](N(C)C)[C@@H](O)[C@H](O[C@H]3[C@@H](CC=O)C[C@@H](C)[C@@H](O[C@H]4CC[C@H](N(C)C)[C@@H](C)O4)/C=C/C=C/C[C@@H](C)OC(=O)C[C@@H](O)[C@@H]3OC)O[C@@H]2C)C[C@@]1(C)O)C(=O)c1ccc(C(C)(C)C)cc1,GES1,"cell growth or viability, CCK-8",,72 h,2.28 µM
CC(C)(C)c1cc(=O)n2ncc(-c3ccc(F)cc3)c2[nH]1,SW480 3D tumour organoids,cytotoxicity,0.4% DMSO,"72 h, 2% Matrigel",1.73 µM
CC1=CC(c2cccc(C(F)(F)F)c2)=[O+][Ru-]([Cl])[O]1.Cc1c(C)c(C)c(C)c(C)c1C,"A2780cis, cisplatin-resistant","cell viability, MTT",,72 h,6.7 ± 2 µM
CN1CCN(Cc2cccc(-c3ccc4[nH]c5ncc(/C=C/c6ccccc6)cc5c4c3)c2)CC1,Ba/F3 NPM-ALK,"cell proliferation, [3H]-thymidine incorporation",,,2.2 µM
O=C(CCCCCCNC(=O)c1cc(C(=O)c2ccccc2)cn1Cc1ccc(F)cc1)NO,SiHa,"cell growth or viability, resazurin",,72 h,4.6 µM
CO[C@@H]1[C@@H](O[C@@H]2O[C@H](C)[C@@H](O[C@H]3C[C@@](C)(O)[C@@H](OC(=O)c4ccccc4)[C@H](C)O3)[C@H](N(C)C)[C@H]2O)[C@@H](CC=O)C[C@@H](C)[C@@H](O[C@H]2CC[C@H](N(C)C)[C@@H](C)O2)/C=C/C=C/C[C@@H](C)OC(=O)C[C@H]1O,GES1,"cell growth or viability, CCK-8",,72 h,13.1 µM
CCNc1cc2c(cc1C)C1(c3cc(C)c(NCC)cc3O2)c2ccccc2C(=O)N1N=Cc1c[c-]c(-c2ccccn2)cc1.Cc1c(C)c(-c2ccc(-c3ccccc3)cc2)[c-](C)c1C.[Cl-].[Ir+3],HeLa human cancer cells,"cell growth, MTT",,24 h,18.7 ± 2.7 µM
COc1c(O)cc2oc3c(Br)c(O)c(CCC(C)C)c(O)c3c(=O)c2c1CCC(C)C,SMMC-7721,cell growth or viability,,48 h,10.8 µM
CO[C@@H]1[C@@H](O[C@@H]2O[C@H](C)[C@@H](O[C@H]3C[C@@](C)(O)[C@@H](OC(=O)/C=C/c4ccc(C(F)(F)F)cc4)[C@H](C)O3)[C@H](N(C)C)[C@H]2O)[C@@H](CC=O)C[C@@H](C)[C@@H](O[C@H]2CC[C@H](N(C)C)[C@@H](C)O2)/C=C/C=C/C[C@@H](C)OC(=O)C[C@H]1O,GES1,"cell growth or viability, CCK-8",,72 h,2.34 µM
CC/C(=C(\c1ccc(O)cc1)c1ccc(OCCN(C)CCOCCN(C)CCOc2ccc(/C(=C(/CC)c3ccccc3)c3ccc(O)cc3)cc2)cc1)c1ccccc1,MCF7 (ER-positive),cell growth,,96 h,0.11 µM
CC(=O)[O][Pt]1([O]C(C)=O)[O]C(=O)C(=O)[O]1.NC1CCCCC1N,five cancer cell lines,cytotoxicity,,mean over panel,33.2 µM
Clc1nc2cc3c(cc2cc1-c1nc2cc(Br)ccc2[nH]1)OCO3,L02,"cell growth or viability, MTT",,48 h,> 100 µM
CCc1ccc([C@H](C)CC(=O)N[C@@H]2O[C@H](COC(C)=O)[C@@H](OC(C)=O)[C@H](OC(C)=O)[C@H]2OC(C)=O)cc1,human T-lymphocyte,cell growth or viability,,72 h,118 µM
[Cl][Cu-][c]1n(-c2c(C(c3ccccc3)c3ccccc3)cc(C(c3ccccc3)c3ccccc3)cc2C(c2ccccc2)c2ccccc2)c2c([n+]1-c1c(C(c3ccccc3)c3ccccc3)cc(C(c3ccccc3)c3ccccc3)cc1C(c1ccccc1)c1ccccc1)-c1cccc3cccc-2c13,NTERA2,"cell growth or viability, MTT",,72 h,> 50 µM
Clc1nc2cc3c(cc2cc1-c1nc2ccccc2[nH]1)OCO3,L02,"cell growth or viability, MTT",,48 h,> 100 µM
COc1ccc2cc3[n+](cc2c1OCc1cn(Cc2ccc(Cl)cc2F)nn1)CCc1cc2c(cc1-3)OCO2,SMMC-7721,"cell growth or viability, MTT",,,14.3 µM
O=C(NO)c1ccc(Cn2sc3ccccc3c2=O)cc1,MM1.S,"cell growth or viability, ATP luminescence",,72 h,2.1 µM
CC(C)N(C[C@H]1O[C@@H](n2cnc3c(N)ncnc32)[C@H](O)[C@@H]1O)C1CC2CN(Cc3cc(F)cc(Br)c3)CC2C1 (stereo partly drawn),H460 wild type,cell growth,,72 h,> 100 µM
CC(=O)c1cnc(N)nc1N1CC[C@H]1c1nn2ccc(Cl)c2c(=O)n1-c1ccccc1,purified human B cells,cell proliferation,,together with: anti-IgM,0.004 µM
O=C(NCC1(c2nc(-c3ccccc3)cs2)CCOCC1)c1cccc(-c2noc(C(F)(F)F)n2)c1,DHL4,"cell proliferation, CCK-8",,5 days,> 10 µM
Cc1cc(C)c([N+]#[C][Pt-]([Cl])([Cl])=[C](Nc2cccc(CN[C](Nc3c(C)cc(C)cc3C)=[Au][Cl])c2)Nc2c(C)cc(C)cc2C)c(C)c1,MRC5,cell growth or viability,,,> 100 µM
CC(C)(C(=O)O)C1(O)CCCCC1,LS174,cell growth or viability,,72 h,> 200 µM
C=C[CH2][Pd-]([Cl])[Cl].CC(C)c1cccc(C(C)C)c1-n1c[n+](-c2c(C(C)C)cccc2C(C)C)c2c1-c1cccc3cccc-2c13,NTERA2,cell growth or viability,,"72 h, 3D culture",17 µM
Cn1cnc(Cn2ccc3ccc(CNCc4[nH]c5ccccc5c4C4NC(=O)c5ccc(O)cc54)cc32)c1 (stereo not drawn),NCI-H441,"cell growth or viability, ATP luminescence",,72 h,> 30 µM
Clc1ccc2[nH]c(-c3cc4cc5c(cc4nc3Cl)OCO5)nc2c1,BEL-7404,"cell growth or viability, MTT",,48 h,> 100 µM
CN1CCN(C(=O)c2cccc(-c3ccc4[nH]c5ncc(/C=C/c6ccccc6)cc5c4c3)c2)CC1,Ba/F3 NPM-ALK,"cell proliferation, [3H]-thymidine incorporation",,,2.2 µM
Clc1nc2ccccc2cc1-c1nc2ccccc2[nH]1,BEL-7404,"cell growth or viability, MTT",,48 h,> 100 µM
CC(=O)Oc1ccc(/C=C/C(=O)Nc2nc(=O)n([C@@H]3O[C@H](C)[C@@H](OC(C)=O)[C@H]3OC(C)=O)cc2F)cc1OC(C)=O,BXPC-3,"cell growth or viability, MTT",,72 h,31.6 µM
[Fe+2].c1cc[cH-]c1.c1ccc(P(=NCc2ccccn2)(c2ccccc2)[c-]2cccc2)cc1,HEK-293T,"cell growth or viability, MTT",,74 h,> 50 µM
Cc1ccc2nc(Cl)c(-c3nc4ccccc4[nH]3)cc2c1,BEL-7404,"cell growth or viability, MTT",,48 h,> 100 µM
CC1=C2[O][Ru-]([Cl])[O+]=C2C=CN1CCCCCCCCCCCCN1C=CC2=[O+][Ru-]([Cl])[O]C2=C1C.Cc1ccc(C(C)C)cc1.Cc1ccc(C(C)C)cc1,5637-oxo oxoplatin-resistant,crystal violet,,96 h,1.1 ± 0.8 µM
Cc1ccc2c(c1)C(=O)[C@](C)([N+](=O)[O-])[C@@H](CC(=O)NC13CC4CC(CC(C4)C1)C3)O2,PC-3M,"cell growth or viability, SRB",,96 h,19.2 µM
CCc1ccc([C@H](C)CC(=O)NC(=O)N[C@@H]2O[C@H](COC(C)=O)[C@@H](OC(C)=O)[C@H](OC(C)=O)[C@H]2OC(C)=O)cc1,human T-lymphocyte,cell growth or viability,,72 h,41 µM
N=C(N)NCCC[C@@H](NC(=O)[C@H](Cc1c[nH]cn1)NC(=O)[C@H](CO)NC(=O)[C@H](Cc1c[nH]c2ccccc12)NC(=O)[C@H](Cc1c[nH]cn1)NC(=O)[C@@H]1CCC(=O)N1)C(=O)N[C@@H](Cc1c[nH]c2ccccc12)C(=O)N[C@@H](Cc1ccc(O)cc1)C(=O)N1CCC[C@H]1C(=O)NCC(N)=O,WPE-1-NB26-3,"cell growth, inhibitor, sulforhodamine B staining",,four days,0.0009 ± 0.0004 µM
COc1c(O)cc2oc3c(Br)c(O)c(CC=C(C)C)c(O)c3c(=O)c2c1CC=C(C)C,SMMC-7721,cell growth or viability,,48 h,24.1 µM
CCN(CC)CCO/N=C1/C=C2CCC3C(CC[C@]4(C)/C(=C/c5ccccn5)CCC34)[C@@]2(C)CC1 (stereo partly drawn),human Fibroblast,"cell growth or viability, resazurin",,72 h,14.7 µM
Clc1cc2nc(-c3cc4ccccc4nc3Cl)[nH]c2cc1Cl,L02,"cell growth or viability, MTT",,48 h,> 100 µM
Cc1cc(C)c([N+]#[C][Pt-]([Cl])([Cl])=[C](Nc2ccc(CN[C](Nc3c(C(C)C)cccc3C(C)C)=[Au][Cl])cc2)Nc2c(C)cc(C)cc2C)c(C)c1,MRC5,cell growth or viability,,,> 100 µM
